Measured values of several laboratories.
Parts stem from different laboratories: compare values within a part only. Substitutions count along the parent as printed.

Sample 1 — method: aptamer microarray, sandwich; form: DNA with 2'F-ANA; sample: in vitro; concentration: 200 nM; added: Cy3 exosite-II aptamer, 400 nM; direction: higher = stronger binding; sequence: GGTTGGTGTGGTTGG
Target: Prothrombin, mature alpha-thrombin (F2, Homo sapiens, UniProt P00734)
Setting: whole 15-mer aptamer, many near background
Modification	mean fluorescence intensity
2'F-ANA at 2 6 8 9 10 12 13	149 a.u.
2'F-ANA at 1 2 3 6 8 9 11 12 13 14 15	76.7 a.u.
2'F-ANA at 1 8 10 13 15	53.9 a.u.
2'F-ANA at 3 4 6 8 9 12 14 15	281 a.u.
2'F-ANA at 3 5 6 9 11 13 14 15	61.3 a.u.
2'F-ANA at 1 2 7 8 9 12 13	314 a.u.
2'F-ANA at 2 4 5 8 10 13	45 a.u.
2'F-ANA at 3 4 5 7 8 9 11 13 14 15	53.4 a.u.
2'F-ANA at 1 6 7 8 9 10 14 15	50.5 a.u.
2'F-ANA at 1 3 5 6 7 10 11 14 15	68.4 a.u.
2'F-ANA at 6 8 10 12 13	176 a.u.
2'F-ANA at 3 4 6 7 10 15	269 a.u.
2'F-ANA at 1 2 3 4 6 9 10 11 14 15	50.1 a.u.
2'F-ANA at 2 3 4 6 9 10 12	255 a.u.
2'F-ANA at 2 4 6 7 11 13 14	76.9 a.u.
2'F-ANA at 1 2 6 7 12	309 a.u.
2'F-ANA at 3 4 11 13 14	318 a.u.
2'F-ANA at 1 2 4 6 7 10	47.1 a.u.
2'F-ANA at 1 3 5 6 10 13	131 a.u.
2'F-ANA at 1 8 11 13 14 15	62.1 a.u.
2'F-ANA at 2 3 4 6 8 9 10 11 13 15	159 a.u.
2'F-ANA at 5 6 7 8 9 10 11 12	50.9 a.u.
2'F-ANA at 1 3 5 6 7 8 13	121 a.u.

Sample 2 — method: RNA Bind-n-Seq; form: RNA; sample: in vitro; concentration: 1 µM; setting: whole 134-nt RNA, ends assumed; added: 150 mM KCl; baseline: input library; direction: higher = stronger binding
Target: Ras GTPase-activating protein-binding protein 1, RRM domain (G3BP1, Homo sapiens, UniProt Q13283)
UniProt Q13283, sequence (whole entry, looked up): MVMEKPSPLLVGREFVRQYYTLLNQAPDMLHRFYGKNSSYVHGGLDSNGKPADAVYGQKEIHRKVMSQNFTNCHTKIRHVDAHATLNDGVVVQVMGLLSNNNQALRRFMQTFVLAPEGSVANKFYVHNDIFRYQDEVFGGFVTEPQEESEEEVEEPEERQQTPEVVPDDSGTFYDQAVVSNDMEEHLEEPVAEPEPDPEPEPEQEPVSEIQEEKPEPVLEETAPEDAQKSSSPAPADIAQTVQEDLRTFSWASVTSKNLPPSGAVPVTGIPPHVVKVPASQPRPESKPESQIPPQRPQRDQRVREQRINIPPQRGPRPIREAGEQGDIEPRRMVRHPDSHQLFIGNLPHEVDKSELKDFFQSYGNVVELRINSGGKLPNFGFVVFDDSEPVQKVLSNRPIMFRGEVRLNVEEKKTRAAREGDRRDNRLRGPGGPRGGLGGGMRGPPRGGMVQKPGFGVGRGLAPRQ
All sequences stand within: GGGAGUUCUACAGUCCGACGAUC … UGGAAUUCUCGGGUGUCAAGG
Sequence	log2 enrichment
UCCUGUGCUACACAUCGUAUGUACCGAAUCGGGUUUUUUGGUUUUUUGGGGUUUUUUGGGAAAGUAUUAUGUUACGCCGUUCGGAUCUGC	-0.0823
CCUCAAGUCCUGUGCUACACAUCGUAUGUACCGAAUCGGCGGGGCGGGGCGGAAAGUAUUAUGUUACGCCGUUCGGAUCUGCACUUCCAG	-0.279
UGGCCCUGGGGGCAUGCGGGGAGGAAGAGGUGGCCUCAUGGAUCGUGGUGGUCCCGGUGGAAUGUUCAGAGGUGGCCGUGGUGGAGACAG	0.927
UCAAGUCCUGUGCUACACAUCGUAUGUACCGAAUCGGUUUUUUUGGUUUGGAGGAAAGUAUUAUGUUACGCCGUUCGGAUCUGCACUUCC	-0.339
UGUGCUACACAUCGUAUGUACCGAAUCGGGAAAAAAAGGGGAAAAAAAGGGAAAAAAAGGGGAAAGUAUUAUGUUACGCCGUUCGGAUCU	0.384
GCAGGAAGUAAAAACAAAUGGAAAUGCUUCGGAUAGUGGCAGGGGUGGGGGUUGCUAAGGAAAGGGUGGGAUUGGAGUGGGUAAAGAGUU	0.799
AGUCCUGUGCUACACAUCGUAUGUACCGAAUCGGGGUGGGGAGGGGAAAAAAAGGGGAAAGUAUUAUGUUACGCCGUUCGGAUCUGCACU	0.821
UCCUGUGCUACACAUCGUAUGUACCGAAUCGGGGUUUGGGGUUUUUUUGGGGUUUGGGGAAAGUAUUAUGUUACGCCGUUCGGAUCUGCA	1.14

Sample 3 — method: protein-binding microarray; form: double-stranded DNA, one strand shown; sample: in vitro; concentration: not given; direction: higher = stronger binding
Target: Protein C-ets-1 (ETS1, Homo sapiens, UniProt P14921, residues 1-441, K379A, full length assumed)
UniProt P14921, sequence (whole entry, unmodified, looked up): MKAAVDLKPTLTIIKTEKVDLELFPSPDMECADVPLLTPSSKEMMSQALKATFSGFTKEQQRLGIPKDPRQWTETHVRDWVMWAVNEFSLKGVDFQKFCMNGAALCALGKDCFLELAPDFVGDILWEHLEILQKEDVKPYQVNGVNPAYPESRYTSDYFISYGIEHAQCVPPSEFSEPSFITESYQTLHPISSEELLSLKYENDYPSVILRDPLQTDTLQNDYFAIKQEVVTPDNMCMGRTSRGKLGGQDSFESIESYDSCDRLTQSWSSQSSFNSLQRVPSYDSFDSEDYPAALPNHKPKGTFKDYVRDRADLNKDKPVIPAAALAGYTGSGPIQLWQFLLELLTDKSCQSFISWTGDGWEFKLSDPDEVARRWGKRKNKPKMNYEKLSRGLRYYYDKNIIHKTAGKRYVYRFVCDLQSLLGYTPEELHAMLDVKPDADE
Setting: k-mer, scored over probes, only values ≥0.25
Sequence	E-score
CGGTATCA	0.257
AGGACCGG	0.397
CACCGACC	0.284
ATACACAT	0.26
CCCGGTCC	0.305
ACCGCCCC	0.295
AACCGGCA	0.292
CTATTGTA	0.262
GCGATCGC	0.258
GCCGGTGA	0.331
CCGGAAAC	0.437
AATGGGTA	0.282
ACCGACGA	0.332

Sample 4 — method: protein-binding microarray; form: double-stranded DNA, one strand shown; sample: in vitro; concentration: 250 nM; setting: 60-bp whole probe; added: salmon DNA 0.4 mg/ml; baseline: random background probes; direction: higher = stronger binding; all sequences stand within: GCCTAGCAC … GTCTTGATTCGCTTGACGCTGCTG
Target: Interferon regulatory factor 5, full length, phosphomimetic (IRF5, Homo sapiens, UniProt Q13568-2, residues 1-514, K96S/S451D/S453D/S456D/S462D)
Sequence	log fluorescence
GACGGTATCGTTTTCCTGACGTGCTAG	2.57 z-score
GACGAACTGCGTATCGAGACGTGCTAG	0.449 z-score
TTAGGGCTGGACTATCGGTTAGTGCTA	4.89 z-score
TTAGATATCGGGACTGCATTAGTGCTA	1.12 z-score
TCACACATTTTTTTCATACTGTGCTAG	1.14 z-score
GACGATTTCGGGTTTCCAGACGTGCTA	3.56 z-score
TTAGGACTGGGTTTCGGCTAGTGCTAG	3.7 z-score
TTAGGTTTCGGTCGCGGTTAGTGCTAG	10.1 z-score
CATCTTCTGGATTTTTTAGCGTGCTAG	0.455 z-score
GCCACCGGTCTCCATGGGTCGTGCTAG	-0.676 z-score
TTCGGTATCGACTATCGGTTAGTGCTA	8.7 z-score
GACGGTATCGATTATCGGGACGTGCTA	6.21 z-score
GACGATTTCCGTTTCGAGACGTGCTAG	3.63 z-score

Sample 5 — method: protein binding microarray; form: double-stranded DNA, one strand shown; sample: in vitro; concentration: not given; baseline: not given; direction: higher = stronger binding
Target: Histone acetyltransferase KAT6A, winged helix 2, GST fusion (KAT6A, Homo sapiens, UniProt Q92794, residues 85-181)
Setting: 8-mer, flanks averaged, mean of 2 arrays, mostly near background
Target sequence (chain): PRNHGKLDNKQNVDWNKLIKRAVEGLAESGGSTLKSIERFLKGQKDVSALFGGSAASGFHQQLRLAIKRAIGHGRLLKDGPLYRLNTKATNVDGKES
Sequence	E-score
AAACGGCC	0.0859
GTGATTGA	-0.029
AAGTGTGA	-0.27
AGGCTGCA	0.0372
CCTTATAG	0.0137
GTTCAACA	0.101
GGACGCTA	-0.0424
ATAAACAA	0.137
AGACGGCG	0.137
AATTCCCC	0.0139
GTTAATCA	0.163
CTTCAATC	-0.00675
ATAAAACC	-0.019
CATCCTAC	-0.0491
ACAACGAA	0.0435
GATCAAAC	-0.074

Sample 6 — method: universal PBM; form: double-stranded DNA, one strand shown; sample: in vitro; concentration: 600 nM; direction: higher = stronger binding
Target: Sal-like protein 4, full length isoform A (SALL4, Homo sapiens, UniProt Q9UJQ4, residues 1-1053)
UniProt Q9UJQ4, sequence (whole entry, looked up): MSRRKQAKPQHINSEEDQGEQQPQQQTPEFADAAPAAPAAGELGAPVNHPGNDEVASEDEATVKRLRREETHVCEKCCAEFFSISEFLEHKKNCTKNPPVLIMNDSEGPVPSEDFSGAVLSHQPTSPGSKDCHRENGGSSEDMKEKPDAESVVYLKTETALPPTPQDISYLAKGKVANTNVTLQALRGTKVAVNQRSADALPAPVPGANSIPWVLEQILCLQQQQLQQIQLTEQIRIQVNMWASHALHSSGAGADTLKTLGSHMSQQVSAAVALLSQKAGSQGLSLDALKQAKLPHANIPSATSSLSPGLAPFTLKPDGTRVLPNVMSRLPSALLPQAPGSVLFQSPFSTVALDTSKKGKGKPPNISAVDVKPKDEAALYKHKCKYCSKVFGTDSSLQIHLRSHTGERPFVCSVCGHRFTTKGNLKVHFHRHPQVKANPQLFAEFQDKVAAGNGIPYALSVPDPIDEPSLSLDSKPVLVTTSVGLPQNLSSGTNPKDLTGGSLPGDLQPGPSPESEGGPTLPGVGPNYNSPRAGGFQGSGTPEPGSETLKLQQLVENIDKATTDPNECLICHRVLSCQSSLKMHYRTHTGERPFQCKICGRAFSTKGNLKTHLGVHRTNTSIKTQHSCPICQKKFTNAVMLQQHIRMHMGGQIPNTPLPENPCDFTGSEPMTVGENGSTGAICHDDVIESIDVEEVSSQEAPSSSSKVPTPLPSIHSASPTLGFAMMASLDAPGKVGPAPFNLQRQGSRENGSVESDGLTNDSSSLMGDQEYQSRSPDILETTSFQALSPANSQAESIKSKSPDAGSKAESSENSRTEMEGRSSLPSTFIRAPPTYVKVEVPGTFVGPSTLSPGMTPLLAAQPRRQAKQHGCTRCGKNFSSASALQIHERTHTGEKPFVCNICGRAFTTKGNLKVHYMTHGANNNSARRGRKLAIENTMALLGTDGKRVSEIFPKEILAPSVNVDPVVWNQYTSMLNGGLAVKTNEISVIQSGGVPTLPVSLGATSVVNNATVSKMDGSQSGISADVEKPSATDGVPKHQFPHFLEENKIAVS
Setting: 8-mer, flanks averaged, mean of replicates
Sequence	E-score
ATGCCGGA	-0.0773
CTGAGGAA	-0.00223
GAAAACGC	-0.0625
GCTGTTCC	-0.175
CAACATTA	0.307
ACACAGAA	0.0293
ATTCTCGC	-0.119
AGAACCCA	-0.17
AGTCGAGA	0.0946
GATAATAC	0.257
CGCCAAAA	0.0471
AGAGAAAT	0.149
ATGGAGAC	0.0245
CAAGGCAG	-0.0987

Sample 7 — method: RNA Bind-n-Seq; form: RNA; sample: in vitro; concentration: 365 nM; baseline: no-protein control; direction: higher = stronger binding
Target: RNA binding protein fox-1 homolog 2, RRM domain, GST-SBP tag (RBFOX2, Homo sapiens, UniProt O43251-10, residues 100-194)
Setting: natural RNA segment, single round, ends assumed
All sequences stand within: GGGAGUUCUACAGUCCGACGAUC … UGGAAUUCUCGGGUGCCAA
Residues (chain): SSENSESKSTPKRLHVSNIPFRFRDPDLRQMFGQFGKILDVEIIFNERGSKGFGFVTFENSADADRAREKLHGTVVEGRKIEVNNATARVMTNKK
Sequence	RBNS enrichment (R)
AAUGGCUUUGUGAAUGUAAAUAAGGGCAGUUCAGGGCCCUGAAGGAGUGAGAUGUUUUUCUAUAUUUUAGAACUAUUUUUGGAUAAAUUAUAUAUUUUCCUUCCUGAUUG	1.26
GCCCGCCCCUGCCCCGCUCUGGGGCCCUCCAGACCUGCUCGGGUGCUGGGGCCAUGCCGAGUCGCGGCCCUGCUCAGCCGGAAGAGGCUCCCGGACCUGGAUGUACAGGG	0.263
CUGAUUUGAUUUUACGUAUCUUCUAUCUACGCCCUUCCUGUGCCUGUGACUCUCCCCAAAUUGCCCUGUUGCCUUGAGCUCUUCUGAGCUAAGGCAGCCUUCAGUCCCUA	0.346
AAGGAGGAAGUUCUGACUUUUCAGGGCUACCUUAUUUCUACUAAGGACCCAGAGCAGGCCUGUCCAUGCCAUUCCUUCGCACAGAUGAAACUGAGCUGGGACUGGAAAGG	0.185
UUUUUCUUUUCUCAACCAUUACGGUUUAUCUUUUUUUAAUGCAGAUAGUUAAAAUUUCACUGCCAGGUUUCUUCUGCCCACCCAAAAGAUCCAGUCUAUAAUUACAGAUU	1.01
CAGGGAUUGUGCUUCAUUCCAAUCUAUUGCUUCACCAUGGCCUUAUGAGGCAGGUGAGAGAUGUUUGAAUUUUUCUCUUCCUUUUAGUAUUCUUAGUUGUUCAGUUGCCA	9.43
CAUUUCCUGAACCCAUGUCUUUUGGGGGUACAGCUUGUCAUCCAGCAGGAAUUAUUGAGCGAGCAGGACUGGAGGAGACGGGAAUGAAGACACAAGAGUGACAUCUGAUC	0.648

Sample 8 — target: CCNB2, cyclin fold, Cln2 fusion (human); method: yeast growth competition, sequencing; sample: yeast; setting: weak parent motif; baseline: not given; direction: higher = stronger binding
Starting sequence: GMNC docking peptide (human); KNAKRNLSSEFAN; partner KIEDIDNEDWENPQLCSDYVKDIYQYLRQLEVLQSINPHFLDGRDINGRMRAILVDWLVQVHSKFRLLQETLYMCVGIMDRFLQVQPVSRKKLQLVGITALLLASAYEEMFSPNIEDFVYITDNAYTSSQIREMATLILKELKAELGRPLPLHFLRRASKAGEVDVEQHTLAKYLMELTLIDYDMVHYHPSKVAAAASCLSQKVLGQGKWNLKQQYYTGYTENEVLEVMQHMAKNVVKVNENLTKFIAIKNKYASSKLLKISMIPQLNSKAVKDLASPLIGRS
Change	normalised enrichment score
A3E	0.182
F11K	0.236
S9P	0.604
L7M	0.354
K4H	-0.178
S9R	0.784
N6P	-0.0894
S8I	0.997
S9C	0.59
S9Y	0.39
S9N	0.924
N2L	0.535
A12Q	0.067
S8Q	0.787
L7E	0.51
E10Q	0.575
